Measured values collected from several papers.
Each numbered part is a random draw from the data of one study; scales do not carry over between parts. Several values in a cell are separate wells, animals, samples, runs or records. Changes are numbered by the printed parent chain.
Sequence of UniProt P23458 (whole entry, looked up): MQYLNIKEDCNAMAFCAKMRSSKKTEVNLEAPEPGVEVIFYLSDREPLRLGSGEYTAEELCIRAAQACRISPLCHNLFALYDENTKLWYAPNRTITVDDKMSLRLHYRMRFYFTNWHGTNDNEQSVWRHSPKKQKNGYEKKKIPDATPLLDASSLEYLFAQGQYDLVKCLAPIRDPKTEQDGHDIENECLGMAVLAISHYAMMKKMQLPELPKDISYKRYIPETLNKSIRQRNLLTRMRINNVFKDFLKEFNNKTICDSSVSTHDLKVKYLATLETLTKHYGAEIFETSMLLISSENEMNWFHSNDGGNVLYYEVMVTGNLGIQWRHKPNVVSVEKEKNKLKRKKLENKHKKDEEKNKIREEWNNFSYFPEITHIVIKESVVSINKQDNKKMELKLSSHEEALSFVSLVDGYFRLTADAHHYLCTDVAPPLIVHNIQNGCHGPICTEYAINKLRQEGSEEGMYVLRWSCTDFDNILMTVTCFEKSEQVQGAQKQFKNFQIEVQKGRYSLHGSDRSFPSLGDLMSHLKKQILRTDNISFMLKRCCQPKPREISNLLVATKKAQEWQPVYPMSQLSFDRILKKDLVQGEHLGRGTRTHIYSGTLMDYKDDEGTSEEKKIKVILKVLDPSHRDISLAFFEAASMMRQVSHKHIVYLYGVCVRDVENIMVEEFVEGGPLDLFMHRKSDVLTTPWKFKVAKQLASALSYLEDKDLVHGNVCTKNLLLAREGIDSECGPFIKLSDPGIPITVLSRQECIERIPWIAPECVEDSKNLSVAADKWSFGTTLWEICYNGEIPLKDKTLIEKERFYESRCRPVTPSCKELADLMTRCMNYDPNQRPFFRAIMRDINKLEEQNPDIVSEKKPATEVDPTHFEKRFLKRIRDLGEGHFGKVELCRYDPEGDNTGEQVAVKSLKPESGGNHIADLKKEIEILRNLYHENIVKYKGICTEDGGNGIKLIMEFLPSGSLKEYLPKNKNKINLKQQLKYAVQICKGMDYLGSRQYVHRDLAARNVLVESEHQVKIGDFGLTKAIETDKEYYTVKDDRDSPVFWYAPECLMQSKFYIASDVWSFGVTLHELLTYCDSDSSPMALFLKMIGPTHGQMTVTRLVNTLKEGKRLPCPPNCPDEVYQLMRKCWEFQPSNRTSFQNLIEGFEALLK

Set 1 — target: CCNA1, cyclin fold, Cln2 fusion (human); method: yeast growth competition, sequencing; sample: yeast; notes: weak parent motif; reference: not given; reading: higher = stronger binding
Starting sequence: viral docking peptide; KGVKRKLFAEDSS; partner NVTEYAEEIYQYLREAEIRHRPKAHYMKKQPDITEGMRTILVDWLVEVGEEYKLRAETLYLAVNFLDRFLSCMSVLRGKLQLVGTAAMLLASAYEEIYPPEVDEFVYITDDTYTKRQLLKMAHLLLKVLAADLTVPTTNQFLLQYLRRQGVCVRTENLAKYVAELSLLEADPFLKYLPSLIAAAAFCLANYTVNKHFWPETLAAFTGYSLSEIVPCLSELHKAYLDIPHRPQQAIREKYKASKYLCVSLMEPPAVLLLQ
| Substitution | normalised enrichment score |
| --- | --- |
| K4I | 0.445 |
| K6E | 1.12 |
| L7N | 0.279 |
| D11S | 1.34 |
| K6H | 0.0464 |
| L7Y | 0.102 |
| K4N | 0.612 |
| K6S | 0.819 |

Set 2 — observed: peptide-MHC binding; molecule type: peptide; concentration: concentration not given
Target: HLA class I histocompatibility antigen, C alpha chain, allele C*04:01 (Homo sapiens, UniProt P10321)
| Molecule | binding |
| --- | --- |
| FVHDSVQYF | inactive |
| FLRKNQRAL | inactive |
| REAPYELNI | inactive |
| FVAATGRPL | inactive |
| VALFSSCPVAY | inactive |
| RYPIDPFLL | inactive |
| RPAGARAAF | inactive |
| FTMRLLSPV | inactive |

Other studies, line by line
| SMILES | target or system | observed | method | concentration | together with | measurement | value |
| --- | --- | --- | --- | --- | --- | --- | --- |
| CC[C@H](C)c1nc2cc(Nc3ccnc4ccc(S(=O)(=O)C(C)C)cc34)ccc2s1.Cl | HT-29 | necroptosis protection | CCK-8 | 0.625 µM | TNF-α SMAC mimetic zVAD | viability | 14% and 19.8% and 13% and 25.4% |
| Cn1cncc1[C@](O)(COc1ccc(C#N)cc1-c1ccc(OC(F)(F)F)cc1)c1ccc(C#N)cc1 | Tyrosine-protein kinase JAK1, JH1 (JAK1, Homo sapiens, UniProt P23458) | cell-free assay | competition with immobilised ligand | 1 µM | – | remaining binding | 59% |
| CC(C)S(=O)(=O)c1ccc2nccc(Nc3ccc4scnc4c3)c2c1 | L929 | necroptosis protection | CCK-8 | 0.313 µM | TNF-α plus zVAD | viability | 16.4% |

Excerpt of the above (set 1):
| Substitution | normalised enrichment score |
| --- | --- |
| K4N | 0.612 |
| L7N | 0.279 |
